Assay results of several laboratories.
A part holds a random share of what one study measured. “And” joins repeats or separate records; there may be more than shown.

Block 1
Target: Replicase polyprotein 1ab, nsp13 helicase (rep, Severe acute respiratory syndrome coronavirus 2, UniProt P0DTD1)
Mode: inhibitor
Tested at: 20 µM
With `CC(C)(Cc1c[nH]c2ccc(Cl)cc12)NCCOc1ccccc1OCC1CC1` the inhibition was 0.36%.
The inhibition of `CCNC(=O)[C@@H]1CCCN1C(=O)[C@H](CCCN=C(N)N)NC(=O)[C@H](CC(C)C)NC(=O)[C@@H](C)NC(=O)[C@H](Cc1ccc(O)cc1)NC(=O)[C@H](CO)NC(=O)[C@H](Cc1c[nH]c2ccccc12)NC(=O)[C@H](Cc1cnc[nH]1)NC(=O)[C@@H]1CCC(=O)N1` is reported as 9.02%.
`Cc1ccnc(NC(=O)C(C)c2cccc(C(=O)c3ccccc3)c2)c1` (stereo not drawn) gave an inhibition of 1.28%.
With `Cc1cc(CCC[C@H](CC(=O)NO)C(=O)N[C@H](C(=O)N[C@H](C)c2ccccc2)C(C)(C)C)ccc1-c1ccccc1` the inhibition was 6.06%.
For `Cc1sc(N)c(C(=O)c2cccc(C(F)(F)F)c2)c1C`, the inhibition was 0.74%.
`Nc1nc(F)nc2c1ncn2[C@@H]1O[C@H](CO)[C@@H](O)[C@@H]1O` has an inhibition of 2.42%.
`C=C(C)[C@@H]1[C@H]2OC(=O)[C@@H]1[C@]1(O)C[C@H]3O[C@]34C(=O)O[C@H]2[C@]14C` has an inhibition of 7.25%.
For `Cc1ccc(NC2=CC(=O)c3sc(C)nc3C2=O)cc1`, the inhibition was -0.99%.
With `CCOC(=O)Nc1ccc2c(c1)N(C(=O)CN(CC)CC)c1ccccc1CC2` the inhibition was 5.27%.
With `COc1ccc(CN2C(=O)C(=O)c3cc(OC(F)(F)F)ccc32)cc1` the inhibition was 39.5%.
With `CC(=O)Nc1cccc(O)c1` the inhibition was 7.15%.
For `Oc1cc(O)c(Cl)cn1`, the inhibition was 2.16%.
With `COc1ccc(-c2cc3nccn3c(Nc3ncccc3C(N)=O)n2)cc1OC` the inhibition was 10.6%.
`CN1CCOC(c2ccccc2)c2ccccc2C1` (stereo not drawn) gave an inhibition of 6.15%.
`CC(C)(COP(=O)(O)OP(=O)(O)OC[C@H]1O[C@@H](n2cnc3c(N)ncnc32)[C@H](O)[C@@H]1OP(=O)(O)O)[C@@H](O)C(=O)NCCC(=O)NCCS` has an inhibition of -2.27%.
`COc1ccc(CC2NCCc3c2[nH]c2ccc(C)cc32)c(Cl)c1OC` (stereo not drawn) gave an inhibition of 4.46%.
With `COC(=O)C1=C(C)NC(C)=C(C(=O)O[C@H]2CCN(Cc3ccccc3)C2)[C@H]1c1cccc([N+](=O)[O-])c1` the inhibition was 2.99%.
The inhibition of `O=C1[C@H](CC[C@H](O)c2ccc(F)cc2)[C@@H](c2ccc(O)cc2)N1c1ccc(F)cc1` is reported as 7.75%.
`N#Cc1cc2c(OCC(O)CN3CCN(C(c4ccccc4)c4ccccc4)CC3)cccc2[nH]1` (racemic) gave an inhibition of 3.99%.
`CN(C)c1cc(CNCC(C)(C)C)c(O)c2c1C[C@H]1C[C@H]3[C@H](N(C)C)C(O)=C(C(N)=O)C(=O)[C@@]3(O)C(O)=C1C2=O` has an inhibition of 9.16%.
`C[C@@H]1CC(=O)NN=C1c1ccc(NN=C(C#N)C#N)cc1` has an inhibition of 4.66%.
`CNC(=O)c1ccc(-c2cnc3ncc(Cc4ccc5ncccc5c4)n3n2)cc1F` has an inhibition of 8.31%.
The inhibition of `O=C1NC(=O)/C(=C/c2ccc3nccc(-c4ccncc4)c3c2)S1` is reported as 8.28%.
With `O=C1c2ccccc2C(Cc2ccncc2)(Cc2ccncc2)c2ccccc21` the inhibition was -3.34%.
The inhibition of `C=C[C@](C)(O)CC[C@@H]1[C@@]2(C)CCCC(C)(C)[C@@H]2CC[C@@]1(C)O` is reported as 3.33%.

Block 2
Target: Replicase polyprotein 1ab, main protease (rep, Severe acute respiratory syndrome coronavirus 2, UniProt P0DTD1)
Effect on: enzyme activity
Mode: inhibitor
Tested at: 20 µM
Setting: hit confirmation, with DTT
`CC(C)Nc1cccnc1N1CCN(C(=O)c2cc3cc(NS(C)(=O)=O)ccc3[nH]2)CC1.CS(=O)(=O)O` gave an inhibition of 67.5%.
`O=C(O)[C@@H](S)[C@@H](S)C(=O)O` gave an inhibition of 99.8% and -8.7%.
With `O=C(/C=C/c1ccc2ccc(C(F)(F)F)cc2n1)c1ccncc1` the inhibition was 14.8%.
The inhibition of `CCCCC/C=C\C/C=C\C/C=C\C/C=C\CCCC(=O)O` is reported as 40.2%.

Block 3
Cell line: HEK-293T
Effect on: pseudovirus infection
Technique: FDA-approved drug library screen
Organism: VSV pseudotyped with SARS-CoV-2 spike
Tested at: 10 µM
Time: 16 h
Reference: vehicle-treated
The GFP-positive cells of `CC(c1cc2ccccc2s1)N(O)C(N)=O` (stereo not drawn) is reported as 84.1%.
The GFP-positive cells of `CN(C)CCc1c[nH]c2ccc(C[C@H]3COC(=O)N3)cc12` is reported as 87.8%.
`COCC(=O)Nc1c(I)c(C(=O)NCC(O)CO)c(I)c(C(=O)N(C)CC(O)CO)c1I` (stereo not drawn) gave a GFP-positive cells of 103%.
With `C[C@H]1C[C@H]2[C@@H]3CCC4=CC(=O)C=C[C@]4(C)[C@@]3(F)[C@@H](O)C[C@]2(C)[C@@]1(O)C(=O)CO` the GFP-positive cells was 90.7%.

Block 4
Target: Ras GTPase-activating protein-binding protein 1, RRM domain (G3BP1, Homo sapiens, UniProt Q13283)
Chain of UniProt Q13283 (whole entry, looked up): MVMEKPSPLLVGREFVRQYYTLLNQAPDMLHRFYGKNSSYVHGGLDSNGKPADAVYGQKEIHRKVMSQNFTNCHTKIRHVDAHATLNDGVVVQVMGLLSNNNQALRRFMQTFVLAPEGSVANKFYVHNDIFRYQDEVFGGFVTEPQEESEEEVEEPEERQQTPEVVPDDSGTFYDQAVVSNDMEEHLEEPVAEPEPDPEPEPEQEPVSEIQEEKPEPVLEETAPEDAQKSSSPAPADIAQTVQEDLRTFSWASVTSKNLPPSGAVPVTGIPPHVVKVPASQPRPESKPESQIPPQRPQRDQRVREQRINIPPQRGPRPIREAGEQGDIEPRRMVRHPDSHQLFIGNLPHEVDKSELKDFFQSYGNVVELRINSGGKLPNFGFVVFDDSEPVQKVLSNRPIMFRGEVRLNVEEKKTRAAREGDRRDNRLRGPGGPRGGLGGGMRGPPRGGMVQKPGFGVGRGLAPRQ
Technique: RNA Bind-n-Seq
Form: RNA
Matrix: in vitro
Tested at: 1 µM
Setting: whole 134-nt RNA, ends assumed
Added: 150 mM KCl
Reference: input library
Direction: higher = stronger binding
`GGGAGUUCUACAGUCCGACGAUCUCCUGUGCUACACAUCGUAUGUACCGAAUCGGGGUUUUUGGGGUUUUUGGGUUUUUGGGGAAAGUAUUAUGUUACGCCGUUCGGAUCUGCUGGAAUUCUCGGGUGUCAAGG` has a log2 enrichment of 0.107.
With `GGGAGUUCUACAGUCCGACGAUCUGGGAGGUGGAUUUUGUUUAGUUUUUUAGCUCAUUUCCAGGGGUGGGAAUUUUUUUUUAAUAUGUGUCAUGAAUAAAGUUGUUUUUGAAAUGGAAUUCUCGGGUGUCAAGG` the log2 enrichment was 0.925.
`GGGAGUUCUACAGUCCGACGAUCUUUAGGUGUUAGACGGUACCGACAACCAGUAUUUGGGCCUGCAGAUUGGACAGCCCCAGGAUGAAGAUGAGGAAGCCACAGGUAUUCUUCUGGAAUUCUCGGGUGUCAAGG` has a log2 enrichment of -0.208.
The log2 enrichment of `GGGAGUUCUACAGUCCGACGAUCUGGACUGCCUAUGGAAGAAGAAGUUCAAGAAGGAGCACGAGGAGUUUGAGACCAUGGAGAACGUGAACCGCCUUCUUCUGGAGAACGUCCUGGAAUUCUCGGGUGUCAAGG` is reported as -0.173.
With `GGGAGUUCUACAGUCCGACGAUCCUGUGCUACACAUCGUAUGUACCGAAUCGGGAAAAAAAGGGGAAAAAAAGGAAAAAAAGGGAAAGUAUUAUGUUACGCCGUUCGGAUCUGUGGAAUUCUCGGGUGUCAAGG` the log2 enrichment was 0.0924.
With `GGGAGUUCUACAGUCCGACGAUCUCAGAAGGUCUUUUAAGUCUGACCACCCAGCUUGUCAAGGAAAAACUCUCCACCUGUGAAGCAGAGGACAUCGCCACCUAUGAGCAGAAUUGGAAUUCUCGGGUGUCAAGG` the log2 enrichment was 0.0161.
`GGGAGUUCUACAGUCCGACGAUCAGUCCUGUGCUACACAUCGUAUGUACCGAAUCGGGUUUUUGGGAAAAAGGGAAAGGGAAAGUAUUAUGUUACGCCGUUCGGAUCUGCACUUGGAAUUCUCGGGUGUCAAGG` has a log2 enrichment of 0.201.
`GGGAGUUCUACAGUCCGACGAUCAAGUCCUGUGCUACACAUCGUAUGUACCGAAUCGGGUUUGGGUGGGAAAAAAAGGGAAAGUAUUAUGUUACGCCGUUCGGAUCUGCACUUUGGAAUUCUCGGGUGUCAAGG` gave a log2 enrichment of 0.303.

Block 5
Target: PABPC1L2, full length, GST fusion (mouse, UniProt A0ABA7IW68)
Technique: RNAcompete
Form: RNA
Matrix: in vitro
Tested at: 20 nM
Setting: 7-mer, probes averaged, single round
Reference: mean of 7-mers
Direction: higher = stronger binding
Target sequence (chain): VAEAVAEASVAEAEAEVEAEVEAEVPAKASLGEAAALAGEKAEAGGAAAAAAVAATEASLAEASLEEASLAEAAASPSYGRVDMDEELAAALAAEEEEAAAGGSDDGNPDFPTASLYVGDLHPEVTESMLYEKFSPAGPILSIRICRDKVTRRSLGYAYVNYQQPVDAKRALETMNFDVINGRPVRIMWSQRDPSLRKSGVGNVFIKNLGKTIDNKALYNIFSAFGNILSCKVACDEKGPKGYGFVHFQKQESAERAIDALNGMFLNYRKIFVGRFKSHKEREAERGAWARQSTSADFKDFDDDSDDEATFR
With `AUCAGUG` the 7-mer Z-score was -0.0754.
`UGUCCAU` gave a 7-mer Z-score of -0.26.
The 7-mer Z-score of `CUGAGUU` is reported as -0.293.
`GUCCAUC` gave a 7-mer Z-score of -0.296.
`CAUUGGU` gave a 7-mer Z-score of -0.162.
The 7-mer Z-score of `AGACCAA` is reported as 0.298.
For `CCAGGAA`, the 7-mer Z-score was 0.211.
With `AGGCGGC` the 7-mer Z-score was 0.204.

Block 6
Target: Hepatocyte nuclear factor 3-beta, forkhead domain (FOXA2, Homo sapiens, UniProt Q9Y261, residues 142-269)
Technique: protein-binding microarray
Form: double-stranded DNA, one strand shown
Matrix: in vitro
Tested at: not given
Setting: k-mer, scored over probes, only values ≥0.25
Direction: higher = stronger binding
Residues (chain): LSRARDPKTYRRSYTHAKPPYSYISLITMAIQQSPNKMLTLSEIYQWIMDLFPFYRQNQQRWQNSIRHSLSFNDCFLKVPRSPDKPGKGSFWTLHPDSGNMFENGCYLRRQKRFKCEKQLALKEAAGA
The E-score of `TACAGAAA` is reported as 0.265.
`ATATTTCG` has an E-score of 0.296.
`ACAAATTA` has an E-score of 0.276.
With `AATGTGGG` the E-score was 0.264.
`TAGTCACA` has an E-score of 0.252.
With `GTATTTTA` the E-score was 0.294.
`ATATCAAG` has an E-score of 0.309.
The E-score of `AACACATC` is reported as 0.255.

Repeated from above (block 3):
The GFP-positive cells of `CC(c1cc2ccccc2s1)N(O)C(N)=O` (stereo not drawn) is reported as 84.1%.
The GFP-positive cells of `CN(C)CCc1c[nH]c2ccc(C[C@H]3COC(=O)N3)cc12` is reported as 87.8%.
`COCC(=O)Nc1c(I)c(C(=O)NCC(O)CO)c(I)c(C(=O)N(C)CC(O)CO)c1I` (stereo not drawn) gave a GFP-positive cells of 103%.
With `C[C@H]1C[C@H]2[C@@H]3CCC4=CC(=O)C=C[C@]4(C)[C@@]3(F)[C@@H](O)C[C@]2(C)[C@@]1(O)C(=O)CO` the GFP-positive cells was 90.7%.
